Measured values collected from several papers.
Each line is one published result; not all experiments were run side by side. Several values in a cell are separate wells, animals, samples, runs or records.

Molecule | target or system | assay | system | conditions | how to read | endpoint | result
gentamicin | Escherichia coli | time-kill |  | 1 x MIC, 60 min |  | viable count | 1.3 log CFU/mL
CTGTTACTCT | Salmonella enterica Typhimurium | RNA-seq, item: pagN | peptide, SL1344 | 5 µM, 15 min | baseline: water | log2 fold change | 1.56
VMRLQSETSV | human SCRIB PDZ3-4 tandem (MBP fusion) | automated holdup | peptide, purified PDZ protein | concentration not given, unit not given | baseline: biotin control resin, higher = stronger binding | binding intensity | 0.661
CTCATTGTCT | Salmonella enterica Typhimurium | RNA-seq, item: pipB2 mRNA | peptide, SL1344 | 5 µM, 15 min | baseline: water control | log2 fold change | 2.87
LVHYTHCGSLGV | Epstein-Barr virus | BamHI-W qPCR | peptide, B-NDG humanized mouse, EBV-infected, peripheral blood | 20 mg/kg, day 28 |  | EBV DNA copy number | 0 copies and 3160 copies
polymyxin B | Escherichia coli | XTT, preformed biofilm | ATCC BAA-2452 | 1 × MIC, 24 h |  | biofilm mass reduction | 44%
Polymyxin B | Escherichia coli |  | ATCC 25922 | 31.2 µg per disc, 24 h, 37 °C |  | inhibition zone diameter | 14 mm
maraviroc | HIV-1 ADA | viral replication, item: HIV-1 p24 antigen | HIV-infected mice, plasma | ip, 120 mg/kg twice daily, 3 weeks post-infection |  | plasma p24 level | 54 pg/mL
Triton X-100 | Escherichia coli | tetracycline antibacterial activity, potentiator, checkerboard | tet efflux pump expressing | 1700 µM, added: tetracycline | baseline: tetracycline alone | fold enhancement | 2 fold
CTCATACTGA | Salmonella enterica Typhimurium | RNA-seq, item: pagN | peptide, SL1344 | 5 µM, 15 min | baseline: water | log2 fold change | 3.12
colistin | Acinetobacter baumannii |  | clinical strain 2E7 |  |  | MIC | 1 µg/mL
GSGAGPETLV | human SCRIB PDZ3-4 tandem (MBP fusion) | automated holdup | peptide, purified PDZ protein | concentration not given, unit not given | baseline: biotin control resin, higher = stronger binding | binding intensity | 0.565
colistin | Escherichia coli | tetracycline activity | tetracycline-resistant | 0.0156 µM, added: tetracycline | baseline: tetracycline alone | fold enhancement | 2 fold
milbemycin oxime | Saccharomyces cerevisiae | cell growth | Pdr5 deleted, Cdr1 overexpressed | 2^-2.966 µg/mL, added: fluconazole 1 µg/mL |  | OD600 | 0.047 and 0.032 and 0.044
colistin | Klebsiella pneumoniae | broth microdilution | clinical isolate RKI-No_164/16 |  |  | MIC | 8 µg/mL
Peginesatide | UT7/EPO | RT-qPCR, item: CXCL2 |  | concentration not given, 90 min, normalized to HPRT1 | baseline: vehicle | mRNA level | 4.6 fold
DAPT | Bacillus cereus |  | ATCC 13061 |  |  | MIC | 1.5 µg/mL
TCATCCGCTG (PNA, CPP-conjugated) | Salmonella enterica Typhimurium | RT-qPCR, item: mrdA | peptide, SL1344 | concentration not given, 30 min, sublethal dose | baseline: mock | mRNA level reduction | 47%
CTCTAACTCT | Salmonella enterica Typhimurium | broth microdilution | peptide, SL1344 | range over 0.3-10 µM, 24 h, 37 °C, Mueller-Hinton broth |  | MIC | > 10 µM
benzalkonium chloride | Enterococcus faecalis |  | OG1RF |  |  | MIC | 32 µM
Polymyxin B | Staphylococcus aureus | DiSC3(5) fluorescence |  | concentration not given, 39 min | higher = more depolarisation | membrane depolarisation | 619 a.u. and 590 a.u. and 858 a.u.
CAGATACTCT | Salmonella enterica Typhimurium | RNA-seq, item: udg mRNA | peptide, SL1344 | 5 µM, 15 min | baseline: water control | log2 fold change | 1.85
TTATCGTCCC | Synechocystis sp. | LC-MS | peptide, PCC 6803 | 10 µM, 48 h | baseline: untreated wild type | D-lactate level | no effect
CTCATACAGT | Salmonella enterica Typhimurium | RNA-seq, item: fabF mRNA | peptide, SL1344 | 5 µM, 15 min | baseline: water control | log2 fold change | -1.45
ivermectin | human adenovirus C5 | reporter virus | A549 | concentration not given, 72 h, highest dose, monotreatment | baseline: untreated control | viral progeny production | 35%
CTCATACTCT | Salmonella enterica Typhimurium | RNA-seq, item: SL1344_3728 transcript | peptide, SL1344 | 5 µM, 15 min | baseline: untreated control | log2 fold change | 1.64
CTTTCATGCG (PNA, CPP-conjugated) | Salmonella enterica Typhimurium | RT-qPCR, item: ftsI | peptide, SL1344 | concentration not given, 30 min, sublethal dose | baseline: mock | mRNA level reduction | 36%

Repeated from above:
Molecule | target or system | assay | system | conditions | how to read | endpoint | result
LVHYTHCGSLGV | Epstein-Barr virus | BamHI-W qPCR | peptide, B-NDG humanized mouse, EBV-infected, peripheral blood | 20 mg/kg, day 28 |  | EBV DNA copy number | 0 copies and 3160 copies
